Published values gathered from unrelated publications.
Each numbered part is a random draw from the data of one study; scales do not carry over between parts. Positions count from the first letter of the parent shown.

Set 1 — method: protein binding microarray; molecule type: double-stranded DNA, one strand shown; medium: in vitro; tested at: not given; relative to: not given; direction: higher = stronger binding
Target: Histone acetyltransferase KAT6A, winged helix 2, GST fusion (KAT6A, Homo sapiens, UniProt Q92794, residues 85-181)
Notes: 8-mer, flanks averaged, mean of 2 arrays, mostly near background
Target sequence (chain): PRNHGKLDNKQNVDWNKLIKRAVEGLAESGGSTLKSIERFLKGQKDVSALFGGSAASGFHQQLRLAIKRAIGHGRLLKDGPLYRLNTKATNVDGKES
Oligonucleotide | E-score
CTCGCGAA | 0.015
AGGCTCAC | -0.0768
CGCTCACA | 0.0558
ATTTACGC | -0.0836
GTAGATTA | 0.104
AAGGCTCG | -0.0333
CCCCGCAC | 0.18
AGGCAACC | 0.0583

Set 2 — target: CCND3, cyclin fold, Cln2 fusion (human); method: yeast growth competition, sequencing; medium: yeast; notes: weak parent motif; relative to: not given; direction: higher = stronger binding
Starting sequence: viral docking peptide; CKVKRKLFGSENI; partner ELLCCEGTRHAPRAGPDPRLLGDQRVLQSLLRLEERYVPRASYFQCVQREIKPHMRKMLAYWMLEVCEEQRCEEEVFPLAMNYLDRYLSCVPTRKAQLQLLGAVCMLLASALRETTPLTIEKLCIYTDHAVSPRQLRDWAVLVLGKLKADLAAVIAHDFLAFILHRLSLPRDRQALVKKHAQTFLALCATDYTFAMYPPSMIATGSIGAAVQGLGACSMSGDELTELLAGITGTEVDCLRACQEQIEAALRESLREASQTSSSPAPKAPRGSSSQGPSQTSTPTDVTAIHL
Change | normalised enrichment score
CKAKRKLFGSENI [V3A] | 0.149
CKVKRKLFASENI [G9A] | 0.148
CKVKAKLFGSENI [R5A] | 0.148
CKVKRKLLGSENI [F8L] | -0.0479
CKVKRKLFGSEAI [N12A] | 0.12
CKVKRKLFGAENI [S10A] | 0.185
CKVKRKAFGSENI [L7A] | 0.159

Set 3 — method: protein-binding microarray; molecule type: hairpin DNA; medium: in vitro; tested at: not given; relative to: not given; direction: higher = stronger binding; constant ends, left off below: GAGGCCAT … ATGGCCTCACACTCTT
Target: POU domain, class 6, transcription factor 1, POU and homeodomain (POU6F1, Homo sapiens, UniProt Q14863, residues 311-611)
Notes: whole hairpin DNA, median over replicate spots
Target sequence (chain): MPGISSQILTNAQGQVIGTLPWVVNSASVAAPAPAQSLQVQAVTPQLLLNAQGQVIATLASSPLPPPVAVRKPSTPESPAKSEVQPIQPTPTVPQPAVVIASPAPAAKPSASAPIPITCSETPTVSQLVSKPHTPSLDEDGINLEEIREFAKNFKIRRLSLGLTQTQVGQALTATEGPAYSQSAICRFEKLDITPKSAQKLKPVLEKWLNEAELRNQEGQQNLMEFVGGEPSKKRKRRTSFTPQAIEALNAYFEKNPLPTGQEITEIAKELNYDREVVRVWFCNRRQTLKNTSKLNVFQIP
Oligonucleotide | median fluorescence
AATTAGCGGCCTCCTGGCCGCTAATT (5mC at 27) | 1670 a.u.
AATGAGATGCCTCCTGGCATCTCATT | 12200 a.u.
CGTGAGGTGCCTCCTGGCACCTCACG | 316 a.u.
AATTAAGTGCCTCCTGGCACTTAATT | 1830 a.u.
AATGAGGGGCCTCCTGGCCCCTCATT | 1860 a.u.
AATGAGGTGCCTCCTGGCACCTCATT | 2750 a.u.
ACTGAGGTGCCTCCTGGCACCTCAGT (5mC at 10) | 352 a.u.
AATGAGTTGCCTCCTGGCAACTCATT | 2590 a.u.

Set 4 — effect on: peptide-MHC binding; molecule type: peptide; tested at: concentration not given
Target: HLA class I histocompatibility antigen, A alpha chain, allele A*80:01 (Homo sapiens, UniProt P04439)
Molecule | binding
TTLRYPIGK | inactive
EVIRATYPS | inactive
FHERGYVKL | inactive
TVFCFFNYI | inactive

Excerpt of the above (set 1):
Oligonucleotide | E-score
CCCCGCAC | 0.18
CTCGCGAA | 0.015
